Results gathered from unrelated publications.
Lines come from different studies, so protocols differ. Values joined by “and” are separate records of one study, mostly repeats; a detail may differ.
Target: Serine/threonine-protein kinase PAK 1 (PAK1, Homo sapiens, UniProt Q13153)

Structure (SMILES) | assay | setting | how to read | quantity | result
CNC1C[S+]2CC[S+]3CC[S+](C1)[Ru-4]321([N]=C=S)[n]2c3ccc(OC)cc3c3c4c(c5cc(F)c[n+]1c5c32)C(=O)NC4=O (centres unmarked) | KinomeScan | 0.1 µM | reference: untreated | remaining binding | 100%
COc1cc(Nc2nc(C)cc(-c3cnn4nc(OC)ccc34)n2)cc(C(F)(F)F)c1 | inhibitor | 1 µM | reference: control | remaining activity | 86%
COCC12C(=O)NC3C4(C(OC)CC1O)C1CC5(O)C(OC)C(O)C(OC(C)=O)(C1C5OC(=O)c1ccccc1)C3(O)C(OC)C24 (centres unmarked) | kinase activity, inhibitor, ProQinase kinase profiling | 25 µM | reference: control | remaining activity | 99% and 98%
CCN1CCN(Cc2ccc(C(=O)Nc3ccc(C)c(NCc4cnc5[nH]ccc5c4OC)c3)cc2C(F)(F)F)CC1 | binding, competition with immobilised ligand | 1 µM |  | remaining binding | 92%
Nc1ncc(-c2cc(-c3cnn(CC(F)(F)F)c3)ncc2F)nc1C(=O)NC1CNCC(F)C1 (centres unmarked) | enzyme activity | 1 µM | reference: DMSO control | remaining activity | 94.4%
Cc1cccc(O[C@H]2CCC[C@@H](C(C)CNCc3ccncc3)C2)c1 (relative stereo) | enzyme activity, inhibitor | 10 µM |  | inhibition | -3%
NC(=O)C[C@H]1CCc2sc3ncnc(O[C@H]4CC[C@H](N5CCOCC5)CC4)c3c21 | enzyme activity, inhibitor | 10 µM |  | inhibition | 2%
C=CC(=O)Nc1cccc(-c2cnc3[nH]cc(C(=O)NC(C)(C)C)c3n2)c1 | enzyme activity, inhibitor | 0.1 µM |  | inhibition | 5%
CNS(=O)(=O)Nc1nccc(Cc2c(C)c3ccc(Oc4ncccc4F)cc3oc2=O)c1F | cell-free assay, competition with immobilised ligand | 10 µM |  | remaining binding | 95%
O=C(Cc1ccc(OCc2ccccc2)cc1)NC1(C(=O)O)CCN(C(=O)c2ccc(-c3cccc(Cl)c3)cc2)CC1 | enzyme activity, inhibitor | 10 µM |  | activity vs control | 110%
CN1CCN(Cc2ccc(-c3ccc(CO[C@H]4CCC[C@@H]4NC(=O)c4cc(-c5cnn(C)c5)cnc4N)cc3)cc2)CC1 | enzyme activity, inhibitor | 0.1 µM |  | inhibition | 9%
CN1CCN(Cc2ccc(NC(=O)c3cccc(C#Cc4cnc(N)c5ncccc45)c3)cc2C(F)(F)F)CC1 | cell-free assay, competition with immobilised ligand | 0.5 µM |  | remaining binding | 100%
C=CC(=O)N1CCc2ccc(-n3c(=O)ccc4cnc5ccc(-c6cnn(C)c6)cc5c43)cc21 | KINOMEscan | 1 µM | reference: DMSO control | remaining binding | 100%
C=C1CCCCCCCCCC(CO)C1=O (centres unmarked) | cell-free assay, competition with immobilised ligand | 10 µM |  | remaining binding | 100%
Cc1nc2c(F)cc(-c3nc(Nc4ccc(CNC(=O)CCCCCCC(=O)NO)cc4)ncc3F)cc2n1C(C)C | enzyme activity, inhibitor | 1 µM |  | inhibition | 77%
COc1c(Cl)cccc1Nc1c(-c2ccncc2C#C[C@@]2(C)CCCN2C(=O)/C=C/CN(C)C)[nH]c2c1C(=O)NCC2 | cell-free assay, competition with immobilised ligand | 3 µM |  | remaining binding | 92%
CNC(=O)C1CCN(c2cc(C)c(F)cc2NC(=O)c2ccc(-c3cc(O)ccc3C)c(C)c2)CC1 | binding, competition with immobilised ligand | 1 µM |  | remaining binding | 47%
